Experimental data pooled from the literature.

Structure (SMILES)	test	system	setting	endpoint	result
CNC(=O)c1ccc(-c2cnc3ncc(Cc4ccc5ncccc5c4)n3n2)cc1F	refers to: Cough	cancer patients	oral, 600 mg twice daily, all expansion cohorts, grade 3-4	patients with adverse event	0%
Cc1cc(NC2CCN(C(=O)OC3CCN(C(=O)/C=C/CN(C)C)C3)CC2)n2ncc(C(C)C)c2n1 (centres unmarked)	–	patients with advanced solid tumours	dose not given, QD arm, any grade	patients with Vomiting	23%
COc1cc(Nc2ncc3c(n2)-c2ccc(Cl)cc2C(c2c(F)cccc2OC)=NC3)ccc1C(=O)O	refers to: Dysgeusia, grade 2	cancer patients, phase 1/2	oral, dose not given, together with: pembrolizumab	patients with adverse event	4%
FC(F)(F)c1ccc(CNc2ccc(Cc3c[nH]c4ncc(Cl)cc34)cn2)cn1	refers to: alanine aminotransferase increased	patients with TGCT	oral, 1000 mg/day, all grades	patients with treatment-related adverse event	18%
Cc1cc(-c2nnc(N)nc2-c2ccc(F)cc2)cc(Cl)n1	refers to: Hypothyroidism	IO-naive colorectal cancer patients	oral, dose not given, treatment-related, grade 1	patients with immune-mediated AE	0%
C[C@@H](Nc1cc(F)cc(F)c1)c1cc(C(=O)N(C)C)cc2c(=O)cc(N3CCOCC3)oc12	refers to: Paresthesia	advanced solid tumour patients	oral, dose not given, dose expansion	patients discontinuing for AE	0%
O=C(Nc1nc2cccc(-c3ccc(CN4CCS(=O)(=O)CC4)cc3)n2n1)C1CC1	–	rheumatoid arthritis patients	oral, 100 mg twice daily, 4 weeks, TEAE regardless of relatedness	patients with Anemia	0%
CCOc1c([C@H](C)n2nc(C)c3c(N)ncnc32)cc(Cl)c(F)c1[C@@H]1CNC(=O)C1	refers to: QTcF above 500 ms	previously treated B-cell malignancy	oral, 20 mg once daily, baseline QTcF ≤450 ms	patients	0%

Repeated from above:
Structure (SMILES)	test	system	setting	endpoint	result
Cc1cc(-c2nnc(N)nc2-c2ccc(F)cc2)cc(Cl)n1	refers to: Hypothyroidism	IO-naive colorectal cancer patients	oral, dose not given, treatment-related, grade 1	patients with immune-mediated AE	0%
